Published values from different studies.
Each line is one published result; not all experiments were run side by side.
Organism: Enterococcus faecium

| SMILES | assay | test system | conditions | how to read | MIC |
| --- | --- | --- | --- | --- | --- |
| N#Cc1ccc2[nH]c(CNCC34CC5CC(CC(C5)C3)C4)nc2c1 |  | ATCC 19434 |  |  | 64 µg/mL |
| CC(=O)NC[C@H]1CN(c2ccc(N3CCOCC3)c(F)c2)C(=O)O1 |  | NR-32053 |  |  | 2.96 µM |
| CN[C@H](CC(C)C)C(=O)N[C@H]1C(=O)N[C@@H](CC(N)=O)C(=O)N[C@H]2C(=O)N[C@H]3C(=O)N[C@H](C(=O)N[C@H](C(=O)O)c4cc(O)cc(O)c4-c4cc3ccc4O)[C@H](O)c3ccc(c(Cl)c3)Oc3cc2cc(c3O[C@@H]2O[C@H](CO)[C@@H](O)[C@H](O)[C@H]2O[C@H]2C[C@](C)(N)[C@H](O)[C@H](C)O2)Oc2ccc(cc2Cl)[C@H]1O |  | strain -9, vancomycin-intermediate |  |  | 4 µg/mL |
| CN[C@H](CC(C)C)C(=O)N[C@H]1C(=O)N[C@@H](CC(N)=O)C(=O)N[C@H]2C(=O)N[C@H]3C(=O)N[C@H](C(=O)N[C@H](C(=O)O)c4cc(O)cc(O)c4-c4cc3ccc4O)[C@H](O)c3ccc(c(Cl)c3)Oc3cc2cc(c3O[C@@H]2O[C@H](CO)[C@@H](O)[C@H](O)[C@H]2O[C@H]2C[C@](C)(N)[C@H](O)[C@H](C)O2)Oc2ccc(cc2Cl)[C@H]1O |  | ATCC 27270 |  |  | 1.5 µg/mL |
| C/C=C(\C)c1cc(O)c(C)c(OC(=O)c2c(C)c(Cl)c(O)c(Cl)c2O)c1 | broth microdilution | 35682 |  |  | 16 µg/mL |
| CCCCCCC#Cc1cncc(-c2nnc(SCc3ccc(C#N)cc3)n2C)c1 |  | vancomycin-resistant |  | no activity at value | ≥ 20 µg/mL |
| CCCCN(C(=O)Nc1cc(-c2ccc(Cl)c(Cl)c2)sc1C(=O)O)c1ccccc1 |  | DSM 20477 | with: folic acid 1 µg/mL |  | 16 µM |
| C/C=C(\C)c1cc(O)c(C)c(OC(=O)c2c(C)cc(O)c(Cl)c2O)c1 | broth microdilution | 35682 |  |  | 16 µg/mL |
| CC(C)(CN)CNCc1nc2ccccc2n1CCOc1ccccc1 |  | ATCC 19434 |  |  | 16 µg/mL |
| C/C=C(\C)c1cc(OC(=O)c2c(C)c(Cl)c(O)c(Cl)c2O)c(C)c(O)c1C(=O)O | broth microdilution | 35682 |  |  | > 64 µg/mL |
| CCCCCCC#Cc1cncc(-c2nnc(SCc3ccc([N+](=O)[O-])cc3)n2C)c1 |  | vancomycin-resistant |  | no activity at value | ≥ 20 µg/mL |
| CN[C@H](CC(C)C)C(=O)N[C@H]1C(=O)N[C@@H](CC(N)=O)C(=O)N[C@H]2C(=O)N[C@H]3C(=O)N[C@H](C(=O)N[C@H](C(=O)O)c4cc(O)cc(O)c4-c4cc3ccc4O)[C@H](O)c3ccc(c(Cl)c3)Oc3cc2cc(c3O[C@@H]2O[C@H](CO)[C@@H](O)[C@H](O)[C@H]2O[C@H]2C[C@](C)(N)[C@H](O)[C@H](C)O2)Oc2ccc(cc2Cl)[C@H]1O | broth microdilution | 36235 |  |  | > 64 µg/mL |
| Cc1ccc(CCC(=O)Nc2nnc(S(N)(=O)=O)s2)cc1 |  | NR-31912 |  |  | 0.184 µM |

Some of these lines once more:
| SMILES | assay | test system | conditions | how to read | MIC |
| --- | --- | --- | --- | --- | --- |
| CCCCN(C(=O)Nc1cc(-c2ccc(Cl)c(Cl)c2)sc1C(=O)O)c1ccccc1 |  | DSM 20477 | with: folic acid 1 µg/mL |  | 16 µM |
